Assay results pooled from the literature.
Lines come from different studies, so protocols differ. Numbers after ± are the reported error. No end group written: not given here.
CHRM1: Muscarinic acetylcholine receptor M1 (CHRM1, Homo sapiens, UniProt P11229)
Chain of UniProt P11229 (whole entry, looked up): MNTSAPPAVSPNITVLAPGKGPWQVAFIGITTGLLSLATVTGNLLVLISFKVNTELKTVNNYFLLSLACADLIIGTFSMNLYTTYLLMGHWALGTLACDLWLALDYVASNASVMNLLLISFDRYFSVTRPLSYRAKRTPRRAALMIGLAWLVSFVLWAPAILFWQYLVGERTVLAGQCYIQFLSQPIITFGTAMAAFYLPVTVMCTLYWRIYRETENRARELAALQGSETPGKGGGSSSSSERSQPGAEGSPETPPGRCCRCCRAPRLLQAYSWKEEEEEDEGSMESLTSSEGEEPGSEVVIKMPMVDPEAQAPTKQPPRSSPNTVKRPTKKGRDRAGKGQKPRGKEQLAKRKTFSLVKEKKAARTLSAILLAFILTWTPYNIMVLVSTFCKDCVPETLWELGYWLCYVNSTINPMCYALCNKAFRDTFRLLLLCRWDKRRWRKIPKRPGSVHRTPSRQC
UGT1A1: UDP-glucuronosyltransferase 1A1 (UGT1A1, Homo sapiens, UniProt P22309)
Chain of UniProt P22309 (whole entry, looked up): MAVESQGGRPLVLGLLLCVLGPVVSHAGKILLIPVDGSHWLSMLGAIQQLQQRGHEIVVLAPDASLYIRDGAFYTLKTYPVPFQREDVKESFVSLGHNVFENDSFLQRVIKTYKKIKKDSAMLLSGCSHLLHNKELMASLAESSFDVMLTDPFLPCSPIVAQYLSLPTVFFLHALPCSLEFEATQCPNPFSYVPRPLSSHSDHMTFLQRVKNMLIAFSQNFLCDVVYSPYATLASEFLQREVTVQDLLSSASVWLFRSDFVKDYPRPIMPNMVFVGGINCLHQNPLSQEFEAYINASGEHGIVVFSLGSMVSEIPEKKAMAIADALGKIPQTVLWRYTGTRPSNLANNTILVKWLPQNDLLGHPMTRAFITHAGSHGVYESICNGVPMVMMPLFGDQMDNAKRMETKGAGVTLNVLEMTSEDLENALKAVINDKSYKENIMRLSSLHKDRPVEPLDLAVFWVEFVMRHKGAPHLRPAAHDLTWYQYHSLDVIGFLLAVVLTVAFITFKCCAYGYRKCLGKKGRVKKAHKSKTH
SCN10A: Sodium channel protein type 10 subunit alpha (SCN10A, Homo sapiens, UniProt Q9Y5Y9)
Chain of UniProt Q9Y5Y9 (whole entry, looked up): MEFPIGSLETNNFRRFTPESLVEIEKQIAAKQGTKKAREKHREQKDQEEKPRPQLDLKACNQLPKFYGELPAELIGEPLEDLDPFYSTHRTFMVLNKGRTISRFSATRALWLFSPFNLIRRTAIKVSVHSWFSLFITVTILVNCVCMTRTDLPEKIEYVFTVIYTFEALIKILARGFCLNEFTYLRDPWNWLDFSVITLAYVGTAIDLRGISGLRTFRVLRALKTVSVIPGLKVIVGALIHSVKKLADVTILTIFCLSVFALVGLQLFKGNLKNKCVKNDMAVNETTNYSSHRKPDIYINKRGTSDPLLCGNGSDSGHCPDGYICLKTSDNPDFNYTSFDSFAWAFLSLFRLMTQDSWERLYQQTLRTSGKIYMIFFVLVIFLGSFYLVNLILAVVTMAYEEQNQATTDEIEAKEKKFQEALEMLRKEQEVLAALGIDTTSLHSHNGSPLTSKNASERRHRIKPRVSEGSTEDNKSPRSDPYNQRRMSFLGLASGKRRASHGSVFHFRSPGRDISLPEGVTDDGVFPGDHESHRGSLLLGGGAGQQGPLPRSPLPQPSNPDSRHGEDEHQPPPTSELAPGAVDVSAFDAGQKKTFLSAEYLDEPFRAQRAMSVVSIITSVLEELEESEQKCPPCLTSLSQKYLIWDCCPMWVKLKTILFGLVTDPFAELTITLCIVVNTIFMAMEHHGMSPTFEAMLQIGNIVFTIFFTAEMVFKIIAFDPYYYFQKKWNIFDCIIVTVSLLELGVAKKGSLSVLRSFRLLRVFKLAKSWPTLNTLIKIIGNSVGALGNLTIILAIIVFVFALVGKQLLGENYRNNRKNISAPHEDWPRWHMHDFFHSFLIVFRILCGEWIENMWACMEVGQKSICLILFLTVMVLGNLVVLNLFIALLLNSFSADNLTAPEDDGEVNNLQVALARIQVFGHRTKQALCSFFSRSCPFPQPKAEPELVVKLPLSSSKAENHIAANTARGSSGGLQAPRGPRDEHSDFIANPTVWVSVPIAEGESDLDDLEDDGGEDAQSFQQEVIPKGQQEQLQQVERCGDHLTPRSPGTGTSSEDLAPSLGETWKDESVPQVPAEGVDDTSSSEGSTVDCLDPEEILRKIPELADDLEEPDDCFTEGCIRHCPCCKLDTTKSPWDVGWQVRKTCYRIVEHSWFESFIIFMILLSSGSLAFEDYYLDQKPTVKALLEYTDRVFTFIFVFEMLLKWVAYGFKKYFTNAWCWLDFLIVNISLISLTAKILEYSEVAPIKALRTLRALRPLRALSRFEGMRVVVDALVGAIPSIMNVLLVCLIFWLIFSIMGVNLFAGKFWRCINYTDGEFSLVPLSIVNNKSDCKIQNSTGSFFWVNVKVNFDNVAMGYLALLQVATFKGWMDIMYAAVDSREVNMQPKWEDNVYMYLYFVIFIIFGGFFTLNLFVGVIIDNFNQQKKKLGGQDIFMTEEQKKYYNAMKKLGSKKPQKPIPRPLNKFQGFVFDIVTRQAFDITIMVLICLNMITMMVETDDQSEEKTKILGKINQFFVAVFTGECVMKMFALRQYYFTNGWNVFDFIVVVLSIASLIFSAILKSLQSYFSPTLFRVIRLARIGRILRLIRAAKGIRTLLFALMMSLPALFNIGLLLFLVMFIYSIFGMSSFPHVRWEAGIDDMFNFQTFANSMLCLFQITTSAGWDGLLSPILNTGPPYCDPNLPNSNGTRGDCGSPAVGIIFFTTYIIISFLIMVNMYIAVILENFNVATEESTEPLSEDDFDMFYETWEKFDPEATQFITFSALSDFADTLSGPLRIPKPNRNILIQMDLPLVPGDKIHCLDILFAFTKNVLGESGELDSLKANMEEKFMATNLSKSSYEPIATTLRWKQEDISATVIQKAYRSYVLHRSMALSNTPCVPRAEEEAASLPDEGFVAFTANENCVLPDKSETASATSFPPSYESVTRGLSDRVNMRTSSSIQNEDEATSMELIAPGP
CHRM4: Muscarinic acetylcholine receptor M4 (CHRM4, Homo sapiens, UniProt P08173)
Chain of UniProt P08173 (whole entry, looked up): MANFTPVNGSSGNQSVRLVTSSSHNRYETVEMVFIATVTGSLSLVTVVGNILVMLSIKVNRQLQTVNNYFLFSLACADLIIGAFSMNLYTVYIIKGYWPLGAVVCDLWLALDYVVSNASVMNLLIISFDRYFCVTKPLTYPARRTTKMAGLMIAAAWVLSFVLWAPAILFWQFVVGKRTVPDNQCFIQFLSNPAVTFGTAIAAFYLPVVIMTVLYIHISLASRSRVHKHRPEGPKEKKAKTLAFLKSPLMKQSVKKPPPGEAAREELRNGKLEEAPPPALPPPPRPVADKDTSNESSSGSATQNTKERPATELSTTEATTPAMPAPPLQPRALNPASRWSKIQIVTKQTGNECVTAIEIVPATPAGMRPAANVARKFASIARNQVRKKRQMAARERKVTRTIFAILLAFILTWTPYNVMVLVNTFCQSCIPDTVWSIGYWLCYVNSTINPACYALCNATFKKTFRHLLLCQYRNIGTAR
T1: RNA G-quadruplex, G-quadruplex, K+ folded (Homo sapiens); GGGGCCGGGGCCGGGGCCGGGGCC
T2: c-di-GMP riboswitch (Clostridium acetobutylicum); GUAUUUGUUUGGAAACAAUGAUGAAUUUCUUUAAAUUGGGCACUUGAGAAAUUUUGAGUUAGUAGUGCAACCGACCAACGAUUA
T3: ssRNA, CUG repeat (Homo sapiens); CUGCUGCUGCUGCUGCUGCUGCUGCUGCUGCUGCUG
B1: side-chain stapled; chain GRTKQEARKSTGG (also: sidechain bridge or staple (positions not given here))
Chain of UniProt O58586 (whole entry, looked up): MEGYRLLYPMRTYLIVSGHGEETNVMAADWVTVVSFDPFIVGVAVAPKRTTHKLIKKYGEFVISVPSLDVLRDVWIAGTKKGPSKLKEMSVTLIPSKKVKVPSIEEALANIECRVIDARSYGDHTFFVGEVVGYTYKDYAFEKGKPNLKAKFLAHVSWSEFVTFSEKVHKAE
Chain of UniProt P51582 (whole entry, looked up): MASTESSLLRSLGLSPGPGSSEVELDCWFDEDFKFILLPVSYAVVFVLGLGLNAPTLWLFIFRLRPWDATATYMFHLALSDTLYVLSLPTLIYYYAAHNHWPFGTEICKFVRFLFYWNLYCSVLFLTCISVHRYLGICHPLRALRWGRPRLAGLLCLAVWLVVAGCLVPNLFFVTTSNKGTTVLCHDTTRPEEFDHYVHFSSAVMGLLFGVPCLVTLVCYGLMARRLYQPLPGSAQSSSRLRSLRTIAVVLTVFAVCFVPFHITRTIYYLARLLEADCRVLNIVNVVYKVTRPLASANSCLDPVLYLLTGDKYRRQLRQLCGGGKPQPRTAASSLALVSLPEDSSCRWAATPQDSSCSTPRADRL
Chain of UniProt Q8WTS6 (whole entry, looked up): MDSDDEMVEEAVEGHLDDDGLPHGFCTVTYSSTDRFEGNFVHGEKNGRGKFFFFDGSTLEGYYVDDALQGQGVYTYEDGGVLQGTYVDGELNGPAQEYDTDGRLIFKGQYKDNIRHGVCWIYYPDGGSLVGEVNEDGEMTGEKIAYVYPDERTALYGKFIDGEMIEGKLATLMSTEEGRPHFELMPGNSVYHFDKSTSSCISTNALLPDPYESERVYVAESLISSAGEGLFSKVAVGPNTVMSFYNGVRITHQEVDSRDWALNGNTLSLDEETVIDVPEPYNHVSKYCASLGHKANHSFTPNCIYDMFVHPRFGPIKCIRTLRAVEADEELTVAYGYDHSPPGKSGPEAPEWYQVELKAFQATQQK
Chain of UniProt Q7L266 (whole entry, looked up): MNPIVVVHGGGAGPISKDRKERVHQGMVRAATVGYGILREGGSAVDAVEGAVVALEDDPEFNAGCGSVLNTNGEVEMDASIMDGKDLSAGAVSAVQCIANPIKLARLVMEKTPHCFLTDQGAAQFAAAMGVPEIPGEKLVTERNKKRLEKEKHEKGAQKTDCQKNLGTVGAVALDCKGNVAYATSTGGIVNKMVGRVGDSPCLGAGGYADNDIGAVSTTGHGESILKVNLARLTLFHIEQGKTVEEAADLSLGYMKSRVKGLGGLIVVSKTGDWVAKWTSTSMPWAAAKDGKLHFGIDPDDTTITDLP
Chain of UniProt P50391 (whole entry, looked up): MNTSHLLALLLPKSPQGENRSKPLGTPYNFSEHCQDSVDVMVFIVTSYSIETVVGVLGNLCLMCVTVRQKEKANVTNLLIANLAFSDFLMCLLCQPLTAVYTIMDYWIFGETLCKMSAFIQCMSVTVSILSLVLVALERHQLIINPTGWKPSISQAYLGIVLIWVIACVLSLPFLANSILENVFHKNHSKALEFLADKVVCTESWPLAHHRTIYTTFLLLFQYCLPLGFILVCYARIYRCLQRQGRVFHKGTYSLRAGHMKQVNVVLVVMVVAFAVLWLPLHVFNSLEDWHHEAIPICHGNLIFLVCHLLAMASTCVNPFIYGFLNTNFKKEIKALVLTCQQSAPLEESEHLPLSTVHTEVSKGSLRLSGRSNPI

Substance | target | assay | test system | conditions | how to read | quantity | result
COC(=O)c1ccc(COc2ccccc2-c2cc(=O)n(C3CCCCC3O)cn2)cc1 (stereo not drawn) | CHRM1 | allosteric agonist, IP1 accumulation | CHO-M1 cells | 1 µM, unit not given | relative to: maximum ACh response | change in baseline activity | -12.5 ± 2.5
B1 | Histone-lysine N-methyltransferase SETD7 (SETD7, Homo sapiens, UniProt Q8WTS6) | peptide methylation, substrate, MALDI-TOF MS |  | 10 µM, 3 h, pH 8.0, 37 °C, enzyme 500 nM, together with: SAM 30 µM |  | methylation conversion | ≥ 90%
CIKVAVS | human polyclonal IgM rheumatoid factor | binding to mAb II-481 | peptide | combined CDR peptides, serum STR |  | maximum inhibition | 0%
C[n+]1ccc(-c2c3nc(c(-c4cc[n+](C)cc4)c4ccc([nH]4)c(-c4cc[n+](C)cc4)c4nc(c(-c5cc[n+](C)cc5)c5ccc2[nH]5)C=C4)C=C3)cc1 | T1, RNA G-quadruplex, G-quadruplex, K+ folded (Homo sapiens) | biolayer interferometry |  | pH 7.0, 30 °C, KCl 185 mM |  | Kd | 50 nM
O=C(O)[C@H]1O[C@@H](Oc2ccc3c(=O)c(O)c(-c4ccc(O)cc4)oc3c2)[C@H](O)[C@@H](O)[C@@H]1O | UGT1A1 | glucuronidation, substrate, Supersomes |  |  |  | Vmax | 3.55 ± 1.11 nmol/mg/min
O=C(c1cccc(-c2ccc(-c3cn(C(=O)N4CCCCC4c4ccccc4)nn3)cc2)c1)N1CCCCC1 (stereo not drawn) | Monoacylglycerol lipase ABHD6 (Abhd6, Mus musculus, UniProt Q8R2Y0) | inhibitor, competitive ABPP | mouse, liver | oral |  | dose for complete inhibition | 10 to 40 mg/kg
COC(=O)c1scc(C)c1NC(=O)C(C)N1CCSCC1 (stereo not drawn) | SCN10A | cell membrane chromatography |  |  | higher = stronger binding | capacity factor k′ | 12.8
O=C1C=CCCC1 | Uncharacterized protein PH0856 (Pyrococcus horikoshii, UniProt O58586) |  |  | 24 h, pH 7, 30 °C, aerobic, together with: 10 mM substrate, 15 mM NAD(P)H |  | conversion | 4 to 7%
COc1ccc(C)c2sc(NC(=O)CC3CC3)nc12 | CHRM4 | calcium mobilization, positive allosteric modulator | CHO expressing hM4 and Gqi5 | concentration not given, together with: acetylcholine EC20 |  | activity | inactive
CN(C)C(=O)c1ccc(COc2ccccc2-c2cc(=O)n(C3CCCCC3O)cn2)cc1 (stereo not drawn) | CHRM1 | positive allosteric modulator, IP1 accumulation | CHO-M1 cells | 10 µM, 60 min, 37 °C, together with: ACh | relative to: ACh alone, higher = stronger potentiation | ΔpEC50 of ACh | 0.98 ± 0.11 log units
OCCN(CCO)c1nc(N2CCCCC2)c2nc(N(CCO)CCO)nc(N3CCCCC3)c2n1 | Translocator protein (TSPO, Homo sapiens, UniProt P30536) | binding, confocal microscopy | U-87 MG mitochondrial fragments | pH 5.9, together with: PIX 1 µM |  | concentration for maximal inhibition | 0.125 µM
O=c1cc(-c2ccccc2OCc2ccc(-c3cn[nH]c3)cc2)ncn1C1CCCCC1O (stereo not drawn) | CHRM1 | allosteric agonist, IP1 accumulation | CHO-M1 cells | 10 µM, unit not given | relative to: maximum ACh response | change in baseline activity | 84.3 ± 3.4
CCCc1nc2ccccc2n1Cc1ccc(-c2ccccc2C(=O)O)cc1 | Peroxisome proliferator-activated receptor gamma (PPARG, Homo sapiens, UniProt P37231) |  | COS-7 | 10 µM, 39 h |  | Emax | 59.4%
Nc1nc2c(ncn2[C@@H]2O[C@@H]3COP(=O)(O)O[C@H]4[C@@H](O)[C@H](n5cnc6c(N)ncnc65)O[C@@H]4COP(=O)(O)O[C@H]3[C@H]2O)c(=O)[nH]1 | T2, c-di-GMP riboswitch (Clostridium acetobutylicum) | competitor, competition gel-shift |  | 4-24 h, pH 6.8, 22 °C, together with: radiolabelled c-di-GMP |  | Kd | 271 nM
Oc1nc(Nc2ccc(F)cc2)cc2ccccc12 | T3, ssRNA, CUG repeat (Homo sapiens) | competition with MBNL1, competitor, TR-FRET |  |  |  | IC50 | 12000 nM
C=CC(C)(C)c1cc(-c2oc3cc(O)ccc3c2Cc2cc(-c3cc4cc(C(C)(C)C=C)c(O)cc4oc3=O)c(O)cc2O)c(O)cc1O | quinone reductase | inducer | Hepa1c1c7 |  |  | concentration doubling activity | 3 µM
CCOC(=O)c1cnn(-c2ccc(NC(=O)C(Cl)=C(Cl)Cl)cc2)c1C(F)(F)F | Short transient receptor potential channel 3 (TRPC3, Homo sapiens, UniProt Q13507) | TRPC3 receptor-operated current, inhibitor, patch clamp | HEK293 transiently expressing TRPC3 | 3 µM, together with: carbachol maximal activation |  | peak current | -2.27 ± 0.96 pA/pF

Substance | target | assay | test system | conditions | how to read | quantity | result
O=c1cc(-c2ccccc2OCc2ccc(Br)cc2)ncn1C1CCCCC1O (stereo not drawn) | CHRM1 | positive allosteric modulator, IP1 accumulation | CHO-M1 cells | 1 µM, 60 min, 37 °C, together with: ACh | relative to: ACh alone, higher = stronger potentiation | ΔpEC50 of ACh | 0.87 ± 0.15 log units
cardiac troponin I S166F | F1FO-ATP synthase (rat heart) | ELISA |  | concentration not given |  | binding | no binding
CN(C)C(=O)CCSC(SCCC(=O)O)c1cccc(/C=C/c2ccc3ccc(Cl)cc3n2)c1 (stereo not drawn) | UGT1A1 | enzyme activity, inhibitor |  | 20 µM |  | remaining activity | 25.8%
O=c1ccn([C@@H]2O[C@H](CP(=O)(O)OP(=O)(O)O)[C@@H](O)[C@H]2O)c(=O)[nH]1 | P2Y purinoceptor 4 (P2RY4, Homo sapiens, UniProt P51582) | phospholipase C stimulation, agonist | 1321-N1 astrocytoma cells | 10 µM |  | EC50 | inactive
O=C(Nc1nc2ccccc2s1)C1CCCCO1 (stereo not drawn) | CHRM4 | calcium mobilization, positive allosteric modulator | CHO expressing hM4 and Gqi5 | concentration not given, together with: acetylcholine EC20 |  | activity | inactive
NC(=O)c1ccc(COc2ccccc2-c2cc(=O)n(C3CCCCC3O)cn2)cc1 (stereo not drawn) | CHRM1 | positive allosteric modulator, IP1 accumulation | CHO-M1 cells | 1 µM, 60 min, 37 °C, together with: ACh | relative to: ACh alone, higher = stronger potentiation | ΔpEC50 of ACh | 1.71 ± 0.15 log units
CCN(CCO)C(C)C(=O)Nc1c(C)csc1C(=O)OC (stereo not drawn) | SCN10A | cell membrane chromatography |  |  | higher = stronger binding | capacity factor k′ | 3
Cc1ccc(COc2ccccc2-c2cc(=O)n(C3CCCCC3O)cn2)cc1 (stereo not drawn) | CHRM1 | allosteric agonist, IP1 accumulation | CHO-M1 cells | 10 µM, unit not given | relative to: maximum ACh response | change in baseline activity | 45.5 ± 4.2
O=P1(O)OC[C@H]2O[C@@H](n3cnc4c(Nc5ccccc5)ncnc43)[C@@H](O)C2O1 (stereo partly drawn) | cAMP-dependent protein kinase type II-beta regulatory subunit, holoenzyme with catalytic subunit (Prkar2b, Rattus norvegicus, UniProt P12369, S112A) | PKA holoenzyme activation, activator, fluorescence anisotropy |  |  | relative to: RIIβ over RIα, higher = RIIβ-selective | selectivity ratio | 4.6
CCCCn1cc(-c2ccc(COc3ccccc3-c3cc(=O)n(C4CCCCC4O)cn3)cc2)cn1 (stereo not drawn) | CHRM1 | positive allosteric modulator, IP1 accumulation | CHO-M1 cells | 1 µM, 60 min, 37 °C, together with: ACh | relative to: ACh alone, higher = stronger potentiation | ΔpEC50 of ACh | 1.49 ± 0.1 log units
C[C@H](N)C(=O)N[C@@H](C)C(=O)N[C@@H](CCCCN)C(=O)N[C@@H](CCCCN)C(=O)N[C@@H](C)C(=O)N[C@@H](C)C(=O)N[C@@H](C)C(=O)N[C@@H](CCCCN)C(=O)N[C@@H](CCCCN)C(=O)N[C@@H](C)C(=O)N[C@@H](C)C(=O)N[C@@H](C)C(=O)N[C@@H](CCCCN)C(=O)N[C@@H](CCCCN)C(=O)N[C@@H](C)C(=O)N[C@@H](C)C(=O)N[C@@H](C)C(=O)N[C@@H](CCCCN)C(=O)N[C@@H](CCCCN)C(=O)N[C@@H](C)C(N)=O | calf thymus DNA | DNA binding |  | ctDNA 100 µM, together with: ethidium bromide 4 µM |  | concentration for full EtBr displacement | 15 µM
CCCCCCCCCCCCCCCC(=O)N[C@@H](CCC(=O)NCCCC[C@H](NC(=O)[C@@H](NC(=O)[C@@H]1CCCN1C(=O)[C@H](CCC(=O)O)NC(=O)[C@H](CC(C)C)NC(=O)[C@@H]1CCCN1C(=O)[C@H](C)NC(=O)c1ccc2c(c1)C(=O)OC21c2ccc(O)cc2Oc2cc(O)ccc21)C(C)C)C(=O)N1CCC[C@H]1C(=O)NCC(=O)N[C@@H](CC(=O)O)C(=O)N[C@@H](CC(N)=O)C(=O)N[C@@H](C)C(=O)N[C@H](C(=O)N1CCC[C@H]1C(=O)N[C@@H](CCC(=O)O)C(=O)N[C@@H](CCC(N)=O)C(=O)N[C@@H](CCSC)C(=O)N[C@@H](C)C(=O)N[C@@H](CCC(N)=O)C(=O)N[C@@H](Cc1ccc(O)cc1)C(=O)N[C@@H](C)C(=O)N[C@@H](C)C(=O)N[C@@H](CC(=O)O)C(=O)N[C@@H](CC(C)C)C(=O)N[C@@H](CCCNC(=N)N)C(=O)N[C@@H](CCCNC(=N)N)C(=O)N[C@@H](Cc1ccc(O)cc1)C(=O)N[C@H](C(=O)N[C@@H](CC(N)=O)C(=O)N[C@@H](CCSC)C(=O)N[C@@H](CC(C)C)C(=O)N[C@H](C(=O)N[C@@H](CCCNC(=N)N)C(=O)N1CCC[C@H]1C(=O)N[C@@H](CCCNC(=N)N)C(=O)N[C@@H](Cc1ccc(O)cc1)C(N)=O)[C@@H](C)O)[C@@H](C)CC)[C@@H](C)O)C(=O)O | Neuropeptide Y receptor type 4 (NPY4R, Homo sapiens, UniProt P50391) | radioligand displacement | COS-7 transiently expressing | 1 µM, 90 min, room temperature, together with: [3H]-hPP 1 nM | relative to: total binding | specific binding | 67%
CCCCc1nc2c([nH]1)c(=O)n(C)c(=O)n2C | Progesterone receptor (PGR, Homo sapiens, UniProt P06401) | reporter gene, antagonist, MMTV-luciferase | T47D/A1-2 | 10 µM, 24 h, together with: 5 nM progesterone | relative to: maximal activity | remaining activity | 155%
O=c1c(O)c(-c2ccc(O)c(O)c2)oc2cc(O)cc(O)c12 | UGT1A1 | enzyme activity, inhibitor |  | 50 µM |  | remaining activity | < 8.4%
COc1ccc(C)c2sc(NS(=O)(=O)c3ccc4occc4c3)nc12 | CHRM4 | calcium mobilization, positive allosteric modulator | CHO expressing hM4 and Gqi5 | concentration not given, together with: acetylcholine EC20 |  | activity | inactive
NCC(=O)O | Isoaspartyl peptidase/L-asparaginase (ASRGL1, Homo sapiens, UniProt Q7L266) | differential scanning fluorimetry |  | 1 M, pH 7.5, unprocessed protein |  | melting temperature | 71 °C

Some of these lines once more:
Substance | target | assay | test system | conditions | how to read | quantity | result
CCCCc1nc2c([nH]1)c(=O)n(C)c(=O)n2C | Progesterone receptor (PGR, Homo sapiens, UniProt P06401) | reporter gene, antagonist, MMTV-luciferase | T47D/A1-2 | 10 µM, 24 h, together with: 5 nM progesterone | relative to: maximal activity | remaining activity | 155%
CIKVAVS | human polyclonal IgM rheumatoid factor | binding to mAb II-481 | peptide | combined CDR peptides, serum STR |  | maximum inhibition | 0%
COc1ccc(C)c2sc(NS(=O)(=O)c3ccc4occc4c3)nc12 | CHRM4 | calcium mobilization, positive allosteric modulator | CHO expressing hM4 and Gqi5 | concentration not given, together with: acetylcholine EC20 |  | activity | inactive
COC(=O)c1ccc(COc2ccccc2-c2cc(=O)n(C3CCCCC3O)cn2)cc1 (stereo not drawn) | CHRM1 | allosteric agonist, IP1 accumulation | CHO-M1 cells | 1 µM, unit not given | relative to: maximum ACh response | change in baseline activity | -12.5 ± 2.5
C=CC(C)(C)c1cc(-c2oc3cc(O)ccc3c2Cc2cc(-c3cc4cc(C(C)(C)C=C)c(O)cc4oc3=O)c(O)cc2O)c(O)cc1O | quinone reductase | inducer | Hepa1c1c7 |  |  | concentration doubling activity | 3 µM
